Measured values pooled from the literature.
Each numbered part is a random draw from the data of one study; scales do not carry over between parts. Positions count from the first letter of the parent shown.

Series 1 — method: protein-binding microarray; molecule type: double-stranded DNA, one strand shown; medium: in vitro; concentration: 0.8 µM; setting: whole 60-bp probe, no competitor; reading: higher = stronger binding; quantity: fluorescence intensity; constant ends, left off below: … GTCTTGATTCGCTTGACGCTGCTG
Target: Centromere-binding protein 1, full length, N-terminal tag (CBF1, Saccharomyces cerevisiae, UniProt P17106, residues 1-351)
UniProt P17106, sequence (whole entry, looked up): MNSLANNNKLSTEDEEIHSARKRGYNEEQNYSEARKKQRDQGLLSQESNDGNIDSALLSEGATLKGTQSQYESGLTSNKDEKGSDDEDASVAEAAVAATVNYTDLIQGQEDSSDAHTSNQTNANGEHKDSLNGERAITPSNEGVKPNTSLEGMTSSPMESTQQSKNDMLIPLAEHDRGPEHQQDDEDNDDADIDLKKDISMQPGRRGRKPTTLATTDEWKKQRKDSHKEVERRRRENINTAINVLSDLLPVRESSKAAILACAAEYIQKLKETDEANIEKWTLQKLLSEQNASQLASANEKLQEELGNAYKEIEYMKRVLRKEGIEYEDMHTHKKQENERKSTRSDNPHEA
GAATACAATATTCCTGATGTAATAATACCAATCTAG: 532 a.u.
CCTAACTACTATAGTCGTGACACATAGCTTCGTACA: 686 a.u.
CTACAATACGTAAACAACGTGCGAAAATATCTATTC: 609 a.u.
TGTACGAAGCTATATCACAAGGATATAGTAGTTAGG: 554 a.u.
CTAGGATACGCAACTGATGTTGTATAGAAATTTTTC: 510 a.u.
CTAGCGCGATCCTGTCACGGAGAACTGTCCGCATTC: 531 a.u.
CTACGCCAACCAAGCCTTACCCTAACCTTATACTTC: 487 a.u.
CTACGGAATAGGCGCCACGTTTCCGTGGGTGACTTC: 616 a.u.
GAAGTGTAGCCCCATGTGAGCAAGCCAAACAAGTAG: 789 a.u.
GAACAATAAACAAATGAAATCACGTTCAACTTCTAG: 1090 a.u.
GAATAATACAAACCTCATGTGCATATATACATATAG: 569 a.u.
GAACGACTCCCAACACACGTTTAATGTTGTACGTAG: 545 a.u.
TGTACGAAGCTATCCCGCATGACTATAGTAGTTAGG: 594 a.u.
GAACACAGCGAATTTCCTCACATGTAGGGACCGTAG: 647 a.u.

Series 2 — method: protein-binding microarray; molecule type: double-stranded DNA, one strand shown; medium: in vitro; concentration: not given; reading: higher = stronger binding; quantity: E-score
Target: Protein max, full length (MAX, Homo sapiens, UniProt P61244-2, residues 1-151)
Setting: k-mer, scored over probes, only values ≥0.25
GCGTGAAA: 0.284
CCACATGA: 0.453
ATACCATG: 0.261
ACACGCAG: 0.277
CATGGGGG: 0.39
ACGAGGCT: 0.268
ATATGCAC: 0.259
GGGCGTGA: 0.31
ACACACGC: 0.407
GCGTGTAC: 0.414
ATGTCATG: 0.314
AGACATGC: 0.396
AACGTGAC: 0.425
CCACCTGA: 0.372
AGACACAT: 0.261
AATGTGGA: 0.28
CGTGCTTA: 0.407
GTGTGCTA: 0.278

Series 3 — method: RNA Bind-n-Seq; molecule type: RNA; medium: in vitro; concentration: 200 nM; setting: whole 134-nt RNA, ends assumed; with: 150 mM LiCl; baseline: input library; reading: higher = stronger binding; quantity: log2 enrichment; library: 7-deaza-guanosine replaces G
Target: Fragile X messenger ribonucleoprotein 1, C-terminal low-complexity region (Fmr1, Mus musculus, UniProt P35922)
Constant ends, left off below: GGGAGUUCUACAGUCCGACGAUC … UGGAAUUCUCGGGUGUCAAGG
GCAGGAAGUAAAAACAAAUGGAAAUGCUUCGGAUAGUGGCAGGGGUGGGGGUUGCUAAGGAAAGGGUGGGGUGGGAGUGGGUAAAGAGUU: 2.1
AGUCCUGUGCUACACAUCGUAUGUACCGAAUCGGGGUUUGGGGAGGGGAAAAAGGGGAAAGUAUUAUGUUACGCCGUUCGGAUCUGCACU: 0.00334
CAAGUCCUGUGCUACACAUCGUAUGUACCGAAUCGGAAAGGUUUGGAAAAAAAGGAAAGUAUUAUGUUACGCCGUUCGGAUCUGCACUUC: -1.54
UUUCUGCAGCAUUAGAGAAGGCCCAAGAAGAAGCCCGUCAGCAGCAAGAAACAUUAGCCAUUCAAGUAAGCAAUGGAUGAUGAAUUAGAG: -2.99
UGUGCUACACAUCGUAUGUACCGAAUCGGGGUUUUUUUGGGGUUUUUGGGGUUUUUUUGGGGAAAGUAUUAUGUUACGCCGUUCGGAUCU: 1.76
UCCUGUGCUACACAUCGUAUGUACCGAAUCAAAUUUAAACCCCCCCAAAUUUUUUUAAAAAAGUAUUAUGUUACGCCGUUCGGAUCUGCA: 2.15

Series 4 — method: RNA Bind-n-Seq; molecule type: RNA; medium: in vitro; concentration: 365 nM; baseline: no-protein control; reading: higher = stronger binding; quantity: RBNS enrichment (R)
Target: RNA binding protein fox-1 homolog 2, RRM domain, GST-SBP tag (RBFOX2, Homo sapiens, UniProt O43251-10, residues 100-194)
Setting: natural RNA segment, single round, ends assumed
Constant ends, left off below: GGGAGUUCUACAGUCCGACGAUC … UGGAAUUCUCGGGUGCCAA
Residues (chain): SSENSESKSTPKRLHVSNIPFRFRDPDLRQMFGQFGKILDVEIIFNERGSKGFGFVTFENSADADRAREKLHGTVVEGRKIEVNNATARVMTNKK
AUAAUUGACUUAGUGAAAGACAGCUUCCCCUCUGUUUAGGUUCUCAGAUAUGUCCAGAGCAAAUUAGUCAUCCCCCGGUUGUGUUCAUAUUAACCACAAUCAUCUCUAGA: 0.464
GGUCACCUAUGAGCUGAAUCAGCCUCUCCUGAGUCCCAGGCCCCUGCAGUCCCCUGUUCUCUGGCCUGCAGUCUCUUGCCCGCUGGUUCCACUUUAUAGCCACCUUUUCC: 0.351
CACCGAGGCCAAAGGCUGCCUCAGCCUUCCCAGCCCAUCCACUCAGCUGUUACCACCCUCUCAGCCUGACGAGACUUAGGCUUCUUAAGAUGUCCUUCCAGCUUGUCAGA: 0.265
UGGAAGGGACACCCCAGCCAGGGACGGAAUGCCUGGUCUUGAGCAACCUCCCACUGCUGGAGUGCGAGUGGGAAUCAGAGCCUCCUGAAGCCUCUGGGAACUCCUCCUGU: 0.453
CACGCUUCGCUGCUACCACCCUGGGCUGGACUGGAGGGUGGGUGCGCCAACUCCCACGCAUUCGUGGGCAGAGCCCCGAGGCUGGUGGGCAGGACAAGGGGACUGGAAGA: 0.477
AGCAUUUAUUCUUGGGUCCUUUAGCCAAACCCAUUCCCUCUUCCUCCCAUGCAAGUUCUUUUGGGAACACCCAGAAAACUUCUCUGAGAAGAAAAAUGGAAGGUAAGUUG: 7.54
GGAGCCAUUCCUGUAGUGAAGGGGGGGUUAUUAUACCCCAGGGCUUCAGAACUCACAGGACAGGGAUUGCUGGAGAACACUGCGAGCUGUGGAGCACACUUAAGGGAUGG: 1.08
AAGAUGCAUGCGAUGAAUACCAACAAUAUCACUGAGCUAGUGAACUAUUUGGCAAAUGACUUAAGGUUAGAUGAAGCUUCAGUCUUGAUAACUGAAUAUUCAAAGCACUG: 4.79
UUUUAAGAACAACGUGGACAUCCGGCAGCACCGGAGCCUCCAGGAGCGCGUGCGGGCAGCCCGCAUGCUGCUGGCCAGGAGCCCCCAGUGCCCUGUGGUGGUGGACACAA: 0.27
ACGGAGCCUUGGGCUUCUGCGUGUUGCCUGACUGUACAAAAGUCUAGUCUCAAAGAUCAAGUUGGUCUGAGGAGCCGGAUGUGACUGUGGGUGUUGGCUGGGGCAUUAAA: 0.717
GAGGGCUUAGGCUGUCUUAGGUGCACACUUGCACGGUCUCCAUGGCCUCCGUGAGCAUCUUUGUAGCUAGCAAUGAGGAAGUGCAGGUGUCUACAGGCCAUCACGUGGGG: 0.686
GCUCUUACUACUUAGUCAACUAUCCUCAGCUGUAUUCGUCUUCAAUUGUCAGUAUGGCACAGAUCACUGUAUUAAAAUGCUCUUUCGUCUUCAUAUUUACCUUCUGAGGU: 0.327

Series 5 — target: CCNE2, cyclin fold, Cln2 fusion (human); method: yeast growth competition, sequencing; medium: yeast; setting: strong parent motif; baseline: not given; reading: higher = stronger binding; quantity: normalised enrichment score
Starting sequence: RBL2 docking peptide (human); STTRRRLFVENDS; partner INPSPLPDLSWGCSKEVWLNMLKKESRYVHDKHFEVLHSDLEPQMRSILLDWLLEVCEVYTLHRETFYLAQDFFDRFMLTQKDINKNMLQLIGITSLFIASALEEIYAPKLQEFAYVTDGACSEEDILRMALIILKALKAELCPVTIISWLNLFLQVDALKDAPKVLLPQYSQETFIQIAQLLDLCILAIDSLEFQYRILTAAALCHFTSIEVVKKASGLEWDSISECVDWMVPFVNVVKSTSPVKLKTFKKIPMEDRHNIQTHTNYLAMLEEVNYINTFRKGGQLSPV
STTRRRLFVERDS [N11R]: 4.14
STTRRRLFVRNDS [E10R]: 1.49
STGRRRLFVENDS [T3G]: 2.39
STTRRRDFVENDS [L7D]: 0.807
STTRQRLFVENDS [R5Q]: 0.722
STTRRRLFVENDY [S13Y]: 4.21
STCRRRLFVENDS [T3C]: 6.06
STTLRRLFVENDS [R4L]: -0.887
STTRRRLHVENDS [F8H]: -0.415
STTRRRLFVENDV [S13V]: 4.51
STTRRRLEVENDS [F8E]: 0.404
STTRRRLFVLNDS [E10L]: 1.78
STTRARLFVENDS [R5A]: -0.0294
STVRRRLFVENDS [T3V]: 7.77

Series 6 — method: protein-binding microarray; molecule type: double-stranded DNA, one strand shown; medium: in vitro; concentration: 2200 nM top; setting: 60-bp whole probe; with: salmon DNA 0.4 mg/ml; baseline: random background probes; reading: higher = stronger binding; quantity: fitted relative affinity; constant ends, left off below: GCCTAGCAC … GTCTTGATTCGCTTGACGCTGCTG
Target: Interferon regulatory factor 7, full length, phosphomimetic (IRF7, Homo sapiens, UniProt Q92985, residues 1-503, S471D/S472D/S475D/S476D/S477D/S483D/S484D/S487D)
Target sequence (chain): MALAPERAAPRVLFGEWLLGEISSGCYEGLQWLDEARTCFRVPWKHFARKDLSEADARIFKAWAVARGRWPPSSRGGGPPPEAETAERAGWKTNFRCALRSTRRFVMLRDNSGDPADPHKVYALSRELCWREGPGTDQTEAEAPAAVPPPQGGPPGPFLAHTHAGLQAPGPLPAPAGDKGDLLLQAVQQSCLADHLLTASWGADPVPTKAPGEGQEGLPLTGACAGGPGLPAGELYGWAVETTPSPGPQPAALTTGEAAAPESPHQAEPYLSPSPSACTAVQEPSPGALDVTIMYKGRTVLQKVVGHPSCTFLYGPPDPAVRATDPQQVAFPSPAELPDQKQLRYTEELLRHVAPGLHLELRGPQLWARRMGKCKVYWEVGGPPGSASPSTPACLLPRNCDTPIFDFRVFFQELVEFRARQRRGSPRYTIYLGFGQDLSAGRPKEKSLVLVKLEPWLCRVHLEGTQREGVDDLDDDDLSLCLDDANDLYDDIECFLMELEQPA
TTAGAACTGAGTATCCATTAGTGCTAG: -0.362 z-score
GACGAACTGAGTCTGGAGACGTGCTAG: -0.278 z-score
GACGATTTCGGTTATCGAGACGTGCTA: 4.14 z-score
TTAGGTATCGCTATCGGTTAGTGCTAG: 1.04 z-score
TCACAGCTGTTTTTCTCACTGTGCTAG: 1.06 z-score
CTTCATGTGCCTTTATATACGTGCTAG: 0.901 z-score
TCACTTTACACACATCATACTGTGCTA: 2.85 z-score
TTAGTTTTCGACACTGGGTTAGTGCTA: 2.91 z-score
GACGGACTGGGTTTCGGTACGTGCTAG: 2.02 z-score
GACGGTCTCCTACTCCTGACGTGCTAG: 1.12 z-score
GACGGACTGAGTCTCGGGACGTGCTAG: -0.355 z-score
TCAGCTTTGTGCCTAGCACTGTGCTAG: 0.18 z-score
GGAGGCCTCTTCATTCATTAAGTGCTA: -0.522 z-score
ACTCGTGTTTTTCTCCTATTGTGCTAG: 2.74 z-score
TTAGGTTTCGCGTTTCGGTTAGTGCTA: 6.41 z-score
GACGGTATCGGGTATCGTGACGTGCTA: 0.0837 z-score
TTAGGACTAGGACTGGGTTAGTGCTAG: -0.571 z-score
TTAGATGCCAGTTTCGATTAGTGCTAG: 5.87 z-score
GACGGACTGCTTCTCCTCACGTGCTAG: 0.677 z-score
TTAGGACGGGGGTATCGGTTAGTGCTA: 0.872 z-score
GTCGATTTCAGTATCGAGACGTGCTAG: 1.52 z-score
GACGGTATCGACTTTTGGGACGTGCTA: 0.417 z-score
GTAGAACTGAGTATCGATTAGTGCTAG: -0.108 z-score
